Results from different studies.
Every numbered part comes from another study and shows a few of its results, in no order. Positions count from the first letter of the parent shown.

Sample 1
Target: PABPC1L2, full length, GST fusion (mouse, UniProt A0ABA7IW68)
Method: RNAcompete
Molecule type: RNA
Medium: in vitro
Concentration: 20 nM
Notes: 7-mer, probes averaged, single round
Relative to: mean of 7-mers
Direction: higher = stronger binding
Construct (chain): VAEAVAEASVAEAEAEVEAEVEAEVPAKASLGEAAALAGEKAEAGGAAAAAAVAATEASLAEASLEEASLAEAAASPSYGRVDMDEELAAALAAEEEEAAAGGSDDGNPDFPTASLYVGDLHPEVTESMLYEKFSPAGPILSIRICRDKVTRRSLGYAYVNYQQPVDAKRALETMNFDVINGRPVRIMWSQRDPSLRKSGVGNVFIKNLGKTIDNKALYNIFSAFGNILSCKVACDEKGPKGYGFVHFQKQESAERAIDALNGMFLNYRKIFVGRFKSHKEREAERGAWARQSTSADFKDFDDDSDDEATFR
Strand	7-mer Z-score
UAAGCUG	-0.155
GACGACG	-0.00652
AAAGGCA	1.05
GUUGCAU	-0.121
AUAGGAG	0.0225
GAGCACU	-0.206
UAGACUC	-0.302
CCCUUUC	-0.481
CCGUUCG	-0.508
AGGGUUU	-0.148
AACAAUA	1.05
GCUCUCC	-0.316
GAACCUU	-0.206
UUAACCG	-0.248
CAGCAAA	0.898
AUGAUUA	-0.161
CCUUGGA	-0.121
UCUGGCA	-0.0863
GUUACAA	0.0116
GCGAGGA	0.267
UCAGCCU	-0.382
AUGGAGU	-0.119
AUUUCGG	-0.132
GCCUACA	-0.142
AUUGUCA	-0.209

Sample 2
Target: CCNE2, cyclin fold, Cln2 fusion (human)
Method: yeast growth competition, sequencing
Medium: yeast
Notes: strong parent motif
Relative to: not given
Direction: higher = stronger binding
Starting sequence: E2F1 docking peptide (human); PPVKRRLDFETDH
Variant	normalised enrichment score
PPVKRRLWFETDH [D8W]	5.8
PPVKRRLLFETDH [D8L]	5.95
PPVARRLDFETDH [K4A]	4.14
PPVKLRLDFETDH [R5L]	0.175
PPVKRRLDFEKDH [T11K]	5.76
PPVKDRLDFETDH [R5D]	-0.183
PPVKRKLDFETDH [R6K]	5.54
PPVKQRLDFETDH [R5Q]	0.214
PPVKRRLDFLTDH [E10L]	5.37
PPVGRRLDFETDH [K4G]	0.885
PPVKRCLDFETDH [R6C]	3.08
PVVKRRLDFETDH [P2V]	4.4
PPVKGRLDFETDH [R5G]	0.17
PPVKRRWDFETDH [L7W]	0.418
PPVKRRLDFEMDH [T11M]	5.89
PPVKRRLDQETDH [F9Q]	0.567
PPVKRRLEFETDH [D8E]	5.38
PPVKRRLDFEPDH [T11P]	5.66
PPVKRRGDFETDH [L7G]	0.133
PPVKRRLDFECDH [T11C]	5.64
PPVKRRLDFETYH [D12Y]	6.65
PPVQRRLDFETDH [K4Q]	2.89
PPVDRRLDFETDH [K4D]	0.227
PPVKRNLDFETDH [R6N]	1.1
PPVKRRLDFETWH [D12W]	6.75

Sample 3
Target: ABI1, truncated, D143A, DHFR fusion (Arabidopsis thaliana, UniProt P49597)
Method: DHFR PCA, dose-response
Medium: yeast
Notes: Hill fit, mean, not affinity
Together with: (+)-ABA, dose series
Direction: lower = more sensitive
Starting sequence: PYL1, truncated, DHFR fusion (Arabidopsis thaliana, UniProt Q8VZS8); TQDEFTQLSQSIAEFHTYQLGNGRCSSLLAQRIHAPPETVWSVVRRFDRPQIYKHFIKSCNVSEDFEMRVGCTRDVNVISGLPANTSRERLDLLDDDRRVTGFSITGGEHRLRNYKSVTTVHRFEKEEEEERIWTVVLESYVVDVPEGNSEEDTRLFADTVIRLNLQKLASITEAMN
Variant	ABA EC50 [µM]
V142M	3.79
T6A	2.4
T39N	5.89
S42L	15.6
T101G	273
I52N	9.42
V137L	60.7
A30H	1.91
S150W	210
H122V	165
H122T	163
Q10K	2.94
E130G	2.63
S59T	1.71
E131M	2.69
T106H	13
E174W	69.9
D97A	2.45
V100L	16.7
D159L	874
V137I	13.2
T173F	16.1
R98D	42.8
T135C	3.26
T154S	126

Sample 4
Target: Hepatocyte nuclear factor 3-alpha (Foxa1, Mus musculus, UniProt P35582, residues 1-468, full length assumed)
Method: EMSA with sequencing
Molecule type: double-stranded DNA, one strand shown
Medium: in vitro
Concentration: 10 and 20 nM
Notes: whole designed probe, mean of two concentrations, ends assumed
Relative to: negative control set to 0
Direction: higher = stronger binding
All sequences stand within: GTGAGCGGTGCCCATTGATGGGGAAC … TTTCACTGGGATCGTGGGGAC
Residues (chain): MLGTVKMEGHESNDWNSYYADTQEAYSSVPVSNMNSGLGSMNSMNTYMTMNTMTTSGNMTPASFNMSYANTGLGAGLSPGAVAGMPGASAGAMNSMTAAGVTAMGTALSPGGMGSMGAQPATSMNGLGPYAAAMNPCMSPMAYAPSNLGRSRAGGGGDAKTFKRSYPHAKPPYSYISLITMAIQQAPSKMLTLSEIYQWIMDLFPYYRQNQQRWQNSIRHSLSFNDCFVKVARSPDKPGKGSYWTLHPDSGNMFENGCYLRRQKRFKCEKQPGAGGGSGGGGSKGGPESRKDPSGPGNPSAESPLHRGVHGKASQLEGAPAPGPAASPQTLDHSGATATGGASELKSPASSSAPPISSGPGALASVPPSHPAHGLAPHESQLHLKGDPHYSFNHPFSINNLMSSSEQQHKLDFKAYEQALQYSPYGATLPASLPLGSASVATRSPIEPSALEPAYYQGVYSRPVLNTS
Strand	normalised bound fraction [ratio]
GTAATGGGGGACTGAGGTTCACTCTATAAGAAAGTTGTCCTCATTATTGGGACCTGATGTAAACAAAAGGAGTGTAAACATTGGGAGTTGTAATGTAAACACTGGGAGTTACTGTAAACATGCCATCATCATTCAAGGAAGGTAAACCCAGGAGCAAGAAGAGGAGCAATAAATGTGGGAATTTTGTTGAGAA	0.525
CTTCTCCAGTTGAGTTTTCTTCATTCTGCAAATATGTGGCATTGGAAGCTGGAAAGAGGCTACTTGGCTGAAACCTTTCTGATGGAGTCTATGTAATCTTACAGAAGAAAAAATGTGTAACTAAGGTTCATATCCCTTAAAAAGAATATGTAGACAATTCAAGTGGCTGTATTAAAAGTTTCACATTCTACCA	0.0368
CAGAGGGGCTCTCAGTCCACTCTGCGGACTGCTGACTGAGACTTTGCAGACCTGCTCCCCTTCTCCCTGCTACCTGCCTGCCGGAAGAGTTGAGTCATCTCAGCCCACCTCCTGCACCCAGAGCTGTGAGTCACAGTTGTTCAAACACGGAGGTGTGAATCACTCAACTTCTAGCCTTTGAGACATCTTGTGT	0.0806
ATCTTCCCCCTCTTCCTTGCCCCACCAGCTCACCTTCCCGGGTTATTTGCAGATAGGAAAATAAATAAAGCCGGCATTCGTTAACGATGAATCATGGCATACTGCCAGAGCAAACAGATCTAACATGGTCCTTTGGCGACGCCAGGCTCCGGGAGAGCAAAGCACCGTGTCAGGGCCATGATCCGGGGTGGCC	0.386
GGCCTGCCGCATCTCTACTCAGCCCCATGCTCACTTCCCACACTCCTCAAGCTCATCAGCATCCAGCAGCACACCAGCGAGCTCAGCGCAGTGTGTTTACTCTGGGCCTGGGCCAGCAGCCCCTGCCAGGCATGACTTCAGCACTCATGGCGTGCAGGCGGGGCAGGAGGCAGGGCTGGGATGTGCACTAGGC	0.266
TAAAAGCATCCTGTGAATCAAAAGAAGATGGCAGATTTTCTGAATACTACTAAGGACTTCATTTAGCATATGCACAATCCTATTAAAAGAAAAAGTAAACAAGTAAATAAGCAAAAATGTATTATCATCCTTCCTGTGTCAAGAGAGTACTCCATTTATACAGCCATAGAAAACTGCAATGAAGATAGGTAAT	0.423
CTAAAGATGTTTTTTTCTTTTTAAATAAAGTAGATGTGGAGTTTTATCAAATTTTTTTCTGCACCTATTGATGGTTGTAATTTTTTTCAATAAGTAATCTTGGTAAGCTAATTGATTTTCTTGTGTAAAACCATCTTTAACATTCCTGAGGTAAACACTACTGGATTTTTTTGCTAATATTTTGCTAATGGTC	0.0444
ATCTTCCCCCTCTTCCTTGCCCCACCAGCTCACCTTCCCGGGTTATTTGCAGATAGGAAAATAAATAAAGCCGGCATTCGTTAACCCTCTTCTGGCGCAAACTGCCAAAGTAAACAGATGAATCATGGTCCTTTGGCGACGCCAGGCTCCGGGAGAGCAAAGCACCGTGTCAGGGCCATGATCCGGGGTGGCC	0.487

Sample 5
Target: NFE2L1, bZIP domain (human)
Method: DHFR protein complementation
Medium: yeast
Notes: single substitutions, most at no-binding floor
Relative to: wild-type JUN-FOS pair
Direction: higher = stronger binding
Starting sequence: JUN, bZIP domain (human); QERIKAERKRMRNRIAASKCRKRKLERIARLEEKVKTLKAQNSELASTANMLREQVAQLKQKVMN; partner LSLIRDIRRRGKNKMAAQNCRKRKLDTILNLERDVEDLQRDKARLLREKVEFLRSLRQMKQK
Variant	binding fitness
A49R	-1.26 natural log
R30S	-1.47 natural log
E33L	-1.47 natural log
V56H	-1.48 natural log
A49C	-1.55 natural log
T37N	-1.46 natural log
L45Q	-1.53 natural log
L52D	-1.41 natural log
Q41F	-1.44 natural log
K34V	-1.54 natural log
A40V	-1.49 natural log
A46L	-1.46 natural log
R30A	-1.44 natural log
A57Q	-1.29 natural log
S43C	-1.21 natural log
E32S	-1.35 natural log
L45C	-1.44 natural log
E44H	-1.36 natural log
L59W	-1.5 natural log
K34P	-1.46 natural log
E33S	-1.55 natural log
S47L	-1.51 natural log

Repeated from above (sample 5):
Variant	binding fitness
A49C	-1.55 natural log
A57Q	-1.29 natural log
L59W	-1.5 natural log
E33L	-1.47 natural log
S43C	-1.21 natural log
R30S	-1.47 natural log
A46L	-1.46 natural log
L45C	-1.44 natural log
E33S	-1.55 natural log
K34V	-1.54 natural log
R30A	-1.44 natural log
A40V	-1.49 natural log
E44H	-1.36 natural log
E32S	-1.35 natural log
L45Q	-1.53 natural log
T37N	-1.46 natural log
L52D	-1.41 natural log
